Assay results of several laboratories.
± gives the spread as reported.
B1: UGT1A9 (Homo sapiens, UniProt O60656); chain GKLLVVPMDGSHWFTMRSVVEKLILRGHEVVVVMPEVSWQLGRSLNCTVKTYSTSYTLEDLDREFKAFAHAQWKAQVRSIYSLLMGSYNDIFDLFFSNCRSLFKDKKLVEYLKESSFDAVFLDPFDNCGLIVAKYFSLPSVVFARGILCHYLEEGAQCPAPLSYVPRILLGFSDAMTFKERVRNHIMHLEEHLLCHRFFKNALEIASEILQTPVTEYDLYSHTSIWLLRTDFVLDYPKPVMPNMIFIGGINCHQGKPLPMEFEAYINASGEHGIVVFSLGSMVSEIPEKKAMAIADALGKIPQTVLWRYTGTRPSNLANNTILVKWLPQNDLLGHPMTRAFITHAGSHGVYESICNGVPMVMMPLFGDQMDNAKRMETKGAGVTLNVLEMTSEDLENALKAVINDKSYKENIMRLSSLHKDRPVEPLDLAVFWVEFVMRHKGAPHLRPAAHDLTWYQYHSLDVIGFLLAVVLTVAFITFKCCAYGYRKCLGKKGRVKKAHKSKTH

Substance	tested on	assay	test system	setting	measurement	value
CC1(C)S[C@@H]2[C@H](NC(=O)[C@H](N)c3ccccc3)C(=O)N2[C@H]1C(=O)O	Escherichia coli	broth microdilution	BW25113, Mueller-Hinton broth	together with: CCCP 50 µg/mL	MIC	1.56 µg/mL
Cc1ccc(NCc2ccc(Oc3ccccn3)cc2)cc1	Mycobacterium tuberculosis		H37Rv, GAST-Fe medium	2 weeks, pH 6.6	MIC	43 µM
Cc1ccc(C2SCC(=O)N2S(=O)(=O)c2ccc(C)cc2)cc1 (stereo not drawn)	Salmonella enterica	microbial growth, broth dilution	TYPHIMURIUM		MIC	> 256 µg/mL
CC1(C)SC2C(NC(=O)C(NC(=O)C3=C(O)C(Cc4ccco4)NC3=O)c3ccccc3)C(=O)N2C1C(=O)O (stereo not drawn)	Escherichia coli	broth microdilution	BW25113, Mueller-Hinton broth	18 h, without clavulanic acid	MIC	6.25 µg/mL
Polymyxin B	Bacillus subtilis	broth microdilution	BR 151, Mueller-Hinton broth	18 h, 37 °C	MIC	4 µg/mL
Cc1ccc(S(=O)(=O)N2C(=O)CSC2c2ccc(F)cc2)cc1 (stereo not drawn)	Salmonella enterica	microbial growth, broth dilution	TYPHIMURIUM		MIC	8 µg/mL
COC(=O)c1ccc(NC(=O)c2[nH]c(C)c(Cl)c2Cl)c(N2CCCC(CN)C2)c1.Cl (stereo not drawn)	Enterococcus faecium	microbial growth, broth dilution	ATCC35667		MIC	1 µg/mL
chlorobiphenyl vancomycin	Enterococcus faecium		ATCC BAA-2317, VanA	16 h, 37 °C	MIC	2.5 µg/mL
CCc1cc(=O)c2c(OCC(O)CN(CC)CC)c3ccoc3c(OC)c2o1 (stereo not drawn)	Staphylococcus epidermidis	broth microdilution	ATCC 35984	19 h, 35 °C	MIC	> 256 µg/mL
Clc1cccc(NCc2ccc(Oc3ccccn3)cc2)c1	Mycobacterium tuberculosis		H37Rv, 7H9/ADC/Tween medium	2 weeks	MIC	80 µM
Cc1ccc(S(=O)(=O)N2C(=O)CSC2c2cccc(C)c2)cc1 (stereo not drawn)	Salmonella enterica	microbial growth, broth dilution	TYPHIMURIUM		MIC	64 µg/mL
CCc1cc(=O)c2c(OCC3CO3)c3ccoc3c(OC)c2o1 (stereo not drawn)	Staphylococcus epidermidis	broth microdilution	ATCC 12228	19 h, 35 °C	MIC	> 256 µg/mL
c1ccc(NCc2ccc(Oc3ccccn3)cc2)cc1	Mycobacterium tuberculosis		H37Rv, 7H9/ADC/Tween medium	2 weeks	MIC	> 50 µM
Cc1ccc(S(=O)(=O)N2C(=O)CSC2c2cccc(Br)c2)cc1 (stereo not drawn)	Salmonella enterica	microbial growth, broth dilution	TYPHIMURIUM		MIC	32 µg/mL
COc1ccc2ncc(F)c(CCN3CCC([C@@H](O)[C@H](O)c4ccc5c(c4)OCCO5)CC3)c2n1	Salmonella enterica	microbial growth, broth dilution	ATCC14028 TYPHIMURIUM		MIC	64 µg/mL
Cc1ccc(S(=O)(=O)N2C(=O)CSC2c2ccccc2[N+](=O)[O-])cc1 (stereo not drawn)	Salmonella enterica	microbial growth, broth dilution	TYPHIMURIUM		MIC	64 µg/mL
pneumocandin J	Candida tropicalis	broth microdilution, resazurin	ATCC 750	24 h, 35 °C	MIC	3.2 µg/mL
Cc1[nH]c(C(=O)Nc2ccc(C(=O)O)cc2N2CCCC(CNC(=O)OC(C)(C)C)C2)c(Cl)c1Cl (stereo not drawn)	Enterococcus faecium	microbial growth, broth dilution	ATCC35667		MIC	> 32 µg/mL
CC1(C)SC2C(NC(=O)C(NC(=O)C3=C(O)C(Cc4ccc([N+](=O)[O-])cc4)NC3=O)c3ccccc3)C(=O)N2C1C(=O)O (stereo not drawn)	Escherichia coli	broth microdilution	BW25113, Mueller-Hinton broth	together with: CCCP 50 µg/mL	MIC	25 µg/mL
O=c1ccc2ncc(=O)n3c2n1C[C@H]3CN1CCC(NCc2cc3c(cn2)OCCC3)CC1	Salmonella enterica	microbial growth, broth dilution	ATCC14028 TYPHIMURIUM		MIC	2 to 8 µg/mL
Brc1cccc(NCc2ccc(Oc3ccccn3)cc2)c1	Mycobacterium tuberculosis		H37Rv, 7H9/ADC/Tween medium	1 weeks	MIC	35 µM
CC1(C)SC2C(NC(=O)C(NC(=O)C3=C(O)C(Cc4ccsc4)NC3=O)c3ccccc3)C(=O)N2C1C(=O)O (stereo not drawn)	Escherichia coli	broth microdilution	BW25113, Mueller-Hinton broth		MIC	50 µg/mL
CCc1cc(=O)c2c(OCC(O)CN3CCCCC3)c3ccoc3c(OC)c2o1 (stereo not drawn)	Staphylococcus epidermidis	broth microdilution	ATCC 12228	19 h, 35 °C	MIC	> 256 µg/mL

Substance	tested on	assay	test system	setting	measurement	value
CC1(C)SC2C(NC(=O)C(NC(=O)C3=C(O)C4(CC4)NC3=O)c3ccccc3)C(=O)N2C1C(=O)O (stereo not drawn)	Escherichia coli	broth microdilution	BW25113, Mueller-Hinton broth		MIC	100 µg/mL
CCOC(=O)c1c(N)csc1-c1cn(-c2ccccc2)nc1-c1ccc(C)cc1	Bacillus subtilis	broth microdilution	clinical urinary isolate	compound gamma-irradiated 20 kGy	MIC	0.124 ± 0.3 µg/mL
Cc1[nH]c(C(=O)Nc2ccc(C(=O)O)cc2N2CCC[C@H](N)C2)c(Cl)c1Cl.Cl	Enterococcus faecium	microbial growth, broth dilution	ATCC35667		MIC	> 32 µg/mL
Cc1ccccc1NCc1ccc(Oc2ccccn2)cc1	Mycobacterium tuberculosis		H37Rv, GAST-Fe medium	1 weeks, pH 6.6	MIC	43 µM
Cc1[nH]c(C(=O)Nc2ccc(C(=O)O)cc2N2CCN(C(=O)OC(C)(C)C)CC2)c(Cl)c1Cl	Enterococcus faecium	microbial growth, broth dilution	ATCC35667		MIC	16 to 32 µg/mL
pneumocandin K	Candida tropicalis	broth microdilution, resazurin	ATCC 750	24 h, 35 °C	MIC	0.2 µg/mL
Cc1ccc(S(=O)(=O)N2C(=O)CSC2c2ccc(Cl)cc2)cc1 (stereo not drawn)	Salmonella enterica	microbial growth, broth dilution	TYPHIMURIUM		MIC	32 µg/mL
COC(=O)c1ccc(NC(=O)c2[nH]c(C)c(Cl)c2Cl)c(N2CCC[C@H](N)C2)c1.Cl	Enterococcus faecium	microbial growth, broth dilution	ATCC35667		MIC	8 µg/mL
Brc1ccc(NCc2ccc(Oc3ccccn3)cc2)cc1	Mycobacterium tuberculosis		H37Rv, GAST-Fe medium	2 weeks, pH 6.6	MIC	70 µM
CCc1cc(=O)c2c(OCC(O)CNC(C)C)c3ccoc3c(OC)c2o1 (stereo not drawn)	Staphylococcus epidermidis	broth microdilution	ATCC 12228	19 h, 35 °C	MIC	> 256 µg/mL
Fc1ccccc1NCc1ccc(Oc2ccccn2)cc1	Mycobacterium tuberculosis		H37Rv, 7H9/ADC/Tween medium	1 weeks	MIC	> 100 µM
CN1CC(O)=C(C(=O)NC(C(=O)NC2C(=O)N3C2SC(C)(C)C3C(=O)O)c2ccccc2)C1=O (stereo not drawn)	Escherichia coli	broth microdilution	BW25113, Mueller-Hinton broth	together with: 2,2'-bipyridyl 30 µg/mL	MIC	100 µg/mL
Cc1ccc(S(=O)(=O)N2C(=O)CSC2c2ccccc2C)cc1 (stereo not drawn)	Salmonella enterica	microbial growth, broth dilution	TYPHIMURIUM		MIC	128 µg/mL
NC[C@@H]1O[C@H](O[C@H]2[C@@H](O)[C@H](O[C@@H]3[C@@H](O)[C@H](N)C[C@H](N)[C@H]3O[C@H]3O[C@H](CO)[C@@H](O)[C@H](O)[C@H]3N)O[C@@H]2CO)[C@H](N)[C@@H](O)[C@@H]1O	Mycolicibacterium smegmatis		wild type		MIC	0.12 µg/mL
CC1(C)SC2C(NC(=O)C(NC(=O)C3=C(O)C(Cc4ccc(O)cc4)NC3=O)c3ccccc3)C(=O)N2C1C(=O)O (stereo not drawn)	Escherichia coli	broth microdilution	BW25113, Mueller-Hinton broth	together with: 2,2'-bipyridyl 30 µg/mL	MIC	25 µg/mL
CC1(C)S[C@@H]2[C@H](NC(=O)[C@H](N)c3ccccc3)C(=O)N2[C@H]1C(=O)O	Enterococcus faecium				MIC	> 367 µM
plantazolicin	Neisseria sicca		ATCC 29256	12 h, 37 °C	MIC	> 48 µM
B1 (UGT1A9)	COc1ccc(-c2coc3cc(O)ccc3c2=O)cc1	steady-state kinetics		pH 7.4, 37 °C	Vmax/Km	30 µL/min/mg
O=C(N[C@H](CO)[C@H](O)c1ccc([N+](=O)[O-])cc1)C(Cl)Cl	Bacillus subtilis	microbial growth, broth dilution			MIC	< 52 µg/mL
pneumocandin A0	Candida tropicalis	broth microdilution, resazurin	ATCC 750	24 h, 35 °C	MIC	1.6 µg/mL
CC1(C)S[C@@H]2[C@H](NC(=O)[C@H](N)c3ccccc3)C(=O)N2[C@H]1C(=O)O	Salmonella enterica	microbial growth, broth dilution	TYPHIMURIUM		MIC	8 µg/mL
CC1(C)S[C@@H]2[C@H](NC(=O)[C@H](N)c3ccccc3)C(=O)N2[C@H]1C(=O)O	Cutibacterium acnes	broth microdilution	ATCC 6919	24 h, 37 °C	MIC	7.5 µg/mL

Some of these lines once more:
Substance	tested on	assay	test system	setting	measurement	value
Cc1[nH]c(C(=O)Nc2ccc(C(=O)O)cc2N2CCN(C(=O)OC(C)(C)C)CC2)c(Cl)c1Cl	Enterococcus faecium	microbial growth, broth dilution	ATCC35667		MIC	16 to 32 µg/mL
pneumocandin K	Candida tropicalis	broth microdilution, resazurin	ATCC 750	24 h, 35 °C	MIC	0.2 µg/mL
Cc1ccc(S(=O)(=O)N2C(=O)CSC2c2ccc(Cl)cc2)cc1 (stereo not drawn)	Salmonella enterica	microbial growth, broth dilution	TYPHIMURIUM		MIC	32 µg/mL
